Measured values collected from several papers.
Numbered parts are unrelated; each lists some results of a single study. “And” joins repeats or separate records; there may be more than shown.
Sequence of UniProt Q13237 (whole entry, looked up): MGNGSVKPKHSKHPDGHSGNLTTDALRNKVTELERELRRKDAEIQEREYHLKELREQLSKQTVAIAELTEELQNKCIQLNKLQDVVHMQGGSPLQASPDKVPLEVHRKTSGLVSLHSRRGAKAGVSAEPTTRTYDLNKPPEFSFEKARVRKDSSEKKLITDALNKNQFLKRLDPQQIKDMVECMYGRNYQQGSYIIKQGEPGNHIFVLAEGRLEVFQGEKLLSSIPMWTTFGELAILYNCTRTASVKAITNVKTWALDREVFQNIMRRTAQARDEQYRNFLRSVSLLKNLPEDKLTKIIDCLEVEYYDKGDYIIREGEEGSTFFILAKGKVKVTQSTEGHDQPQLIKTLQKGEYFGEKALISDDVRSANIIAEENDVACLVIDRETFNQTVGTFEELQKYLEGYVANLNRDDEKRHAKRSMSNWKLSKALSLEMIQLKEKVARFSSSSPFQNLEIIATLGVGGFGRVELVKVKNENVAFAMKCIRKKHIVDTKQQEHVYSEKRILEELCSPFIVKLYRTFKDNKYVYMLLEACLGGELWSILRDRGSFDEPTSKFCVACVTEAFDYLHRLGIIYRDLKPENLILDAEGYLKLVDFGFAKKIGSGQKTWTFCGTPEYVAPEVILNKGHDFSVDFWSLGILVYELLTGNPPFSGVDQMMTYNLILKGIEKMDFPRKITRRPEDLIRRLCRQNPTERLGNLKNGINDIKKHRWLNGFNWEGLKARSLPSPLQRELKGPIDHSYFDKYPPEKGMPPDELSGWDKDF
Sequence of UniProt Q6P3R8 (whole entry, looked up): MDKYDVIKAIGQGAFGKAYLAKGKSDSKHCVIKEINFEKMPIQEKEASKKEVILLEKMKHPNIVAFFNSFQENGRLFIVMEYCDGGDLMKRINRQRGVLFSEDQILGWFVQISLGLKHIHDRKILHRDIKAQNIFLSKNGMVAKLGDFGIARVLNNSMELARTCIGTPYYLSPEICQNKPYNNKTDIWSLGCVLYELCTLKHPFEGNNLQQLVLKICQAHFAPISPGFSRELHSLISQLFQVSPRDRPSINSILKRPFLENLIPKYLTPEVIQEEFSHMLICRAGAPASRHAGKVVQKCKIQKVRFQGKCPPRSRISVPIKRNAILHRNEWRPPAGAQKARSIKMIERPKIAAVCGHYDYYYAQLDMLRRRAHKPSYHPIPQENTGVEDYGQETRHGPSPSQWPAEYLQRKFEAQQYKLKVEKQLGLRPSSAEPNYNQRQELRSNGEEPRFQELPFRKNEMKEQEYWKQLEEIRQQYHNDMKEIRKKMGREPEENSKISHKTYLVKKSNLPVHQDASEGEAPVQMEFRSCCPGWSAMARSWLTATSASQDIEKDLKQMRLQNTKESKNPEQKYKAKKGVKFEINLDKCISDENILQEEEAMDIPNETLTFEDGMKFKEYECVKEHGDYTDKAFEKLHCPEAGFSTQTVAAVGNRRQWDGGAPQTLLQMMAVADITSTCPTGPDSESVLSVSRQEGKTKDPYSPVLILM
Sequence of UniProt Q86Y07 (whole entry, looked up): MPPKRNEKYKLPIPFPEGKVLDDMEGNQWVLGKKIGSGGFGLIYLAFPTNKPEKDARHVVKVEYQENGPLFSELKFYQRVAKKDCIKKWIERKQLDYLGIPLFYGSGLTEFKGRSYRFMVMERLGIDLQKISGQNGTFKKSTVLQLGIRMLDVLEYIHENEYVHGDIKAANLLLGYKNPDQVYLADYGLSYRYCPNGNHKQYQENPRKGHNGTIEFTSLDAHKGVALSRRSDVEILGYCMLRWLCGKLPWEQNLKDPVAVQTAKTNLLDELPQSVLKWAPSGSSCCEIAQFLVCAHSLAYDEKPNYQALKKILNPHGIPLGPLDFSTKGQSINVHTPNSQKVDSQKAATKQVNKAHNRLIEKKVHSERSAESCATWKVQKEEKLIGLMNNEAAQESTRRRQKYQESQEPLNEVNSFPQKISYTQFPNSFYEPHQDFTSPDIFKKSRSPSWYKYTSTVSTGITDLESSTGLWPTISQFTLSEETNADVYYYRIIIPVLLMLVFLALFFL

Series 1 — observed: enzyme activity; action: inhibitor; tested at: 0.5 µM; baseline: control
Structure (SMILES): Cc1cn(-c2cc(NC(=O)c3ccc(C)c(Nc4nccc(-c5cccnc5)n4)c3)cc(C(F)(F)F)c2)cn1
| target | remaining activity [%] |
| --- | --- |
| MARK4 (Homo sapiens, UniProt Q96L34) | 102 |
| PRKG2 (Homo sapiens, UniProt Q13237) | 109 |
| PLK3 (Homo sapiens, UniProt Q9H4B4) | 105 |
| MET (Homo sapiens, UniProt P08581) | 95.8 |
| CLK3 (Homo sapiens, UniProt P49761) | 111 |
| Myosin-IIIb (MYO3B, Homo sapiens, UniProt Q8WXR4) | 85 |
| CAMK4 (Homo sapiens, UniProt Q16566) | 102 |
| TXK (Homo sapiens, UniProt P42681) | 104 |
| MARK2 (Homo sapiens, UniProt Q7KZI7) | 142 |
| NEK3 (Homo sapiens, UniProt P51956) | 95.9 |
| ROCK1 (Homo sapiens, UniProt Q13464) | 110 |
| TLK2 (Homo sapiens, UniProt Q86UE8) | 87.8 |
| MINK1 (Homo sapiens, UniProt Q8N4C8) | 113 |
| KDR (Homo sapiens, UniProt P35968) | 92 |

Series 2 — observed: cell-free assay; method: competition with immobilised ligand; tested at: 1 µM
SMILES: CCS(=O)(=O)c1cc2cc(C[C@](O)(CC(C)(C)c3ccc(F)cc3C(N)=O)C(F)(F)F)[nH]c2cn1
| target | remaining binding [%] |
| --- | --- |
| TBK1 (Homo sapiens, UniProt Q9UHD2) | 93 |
| NEK5 (Homo sapiens, UniProt Q6P3R8) | 100 |
| CLK4 (Homo sapiens, UniProt Q9HAZ1) | 95 |
| WNK4 (Homo sapiens, UniProt Q96J92) | 100 |
| CSNK1E (Homo sapiens, UniProt P49674) | 95 |
| TGFBR1 (Homo sapiens, UniProt P36897) | 100 |
| VRK2 (Homo sapiens, UniProt Q86Y07) | 100 |
| CASK (Homo sapiens, UniProt O14936) | 100 |
| TAOK2 (Homo sapiens, UniProt Q9UL54) | 85 |

Series 3 — action: inhibitor; tested at: concentration not given; together with: without ssDNA
Target: DNA polymerase theta, helicase domain (POLQ, Homo sapiens, UniProt O75417)
Sequence of UniProt O75417 (whole entry, looked up): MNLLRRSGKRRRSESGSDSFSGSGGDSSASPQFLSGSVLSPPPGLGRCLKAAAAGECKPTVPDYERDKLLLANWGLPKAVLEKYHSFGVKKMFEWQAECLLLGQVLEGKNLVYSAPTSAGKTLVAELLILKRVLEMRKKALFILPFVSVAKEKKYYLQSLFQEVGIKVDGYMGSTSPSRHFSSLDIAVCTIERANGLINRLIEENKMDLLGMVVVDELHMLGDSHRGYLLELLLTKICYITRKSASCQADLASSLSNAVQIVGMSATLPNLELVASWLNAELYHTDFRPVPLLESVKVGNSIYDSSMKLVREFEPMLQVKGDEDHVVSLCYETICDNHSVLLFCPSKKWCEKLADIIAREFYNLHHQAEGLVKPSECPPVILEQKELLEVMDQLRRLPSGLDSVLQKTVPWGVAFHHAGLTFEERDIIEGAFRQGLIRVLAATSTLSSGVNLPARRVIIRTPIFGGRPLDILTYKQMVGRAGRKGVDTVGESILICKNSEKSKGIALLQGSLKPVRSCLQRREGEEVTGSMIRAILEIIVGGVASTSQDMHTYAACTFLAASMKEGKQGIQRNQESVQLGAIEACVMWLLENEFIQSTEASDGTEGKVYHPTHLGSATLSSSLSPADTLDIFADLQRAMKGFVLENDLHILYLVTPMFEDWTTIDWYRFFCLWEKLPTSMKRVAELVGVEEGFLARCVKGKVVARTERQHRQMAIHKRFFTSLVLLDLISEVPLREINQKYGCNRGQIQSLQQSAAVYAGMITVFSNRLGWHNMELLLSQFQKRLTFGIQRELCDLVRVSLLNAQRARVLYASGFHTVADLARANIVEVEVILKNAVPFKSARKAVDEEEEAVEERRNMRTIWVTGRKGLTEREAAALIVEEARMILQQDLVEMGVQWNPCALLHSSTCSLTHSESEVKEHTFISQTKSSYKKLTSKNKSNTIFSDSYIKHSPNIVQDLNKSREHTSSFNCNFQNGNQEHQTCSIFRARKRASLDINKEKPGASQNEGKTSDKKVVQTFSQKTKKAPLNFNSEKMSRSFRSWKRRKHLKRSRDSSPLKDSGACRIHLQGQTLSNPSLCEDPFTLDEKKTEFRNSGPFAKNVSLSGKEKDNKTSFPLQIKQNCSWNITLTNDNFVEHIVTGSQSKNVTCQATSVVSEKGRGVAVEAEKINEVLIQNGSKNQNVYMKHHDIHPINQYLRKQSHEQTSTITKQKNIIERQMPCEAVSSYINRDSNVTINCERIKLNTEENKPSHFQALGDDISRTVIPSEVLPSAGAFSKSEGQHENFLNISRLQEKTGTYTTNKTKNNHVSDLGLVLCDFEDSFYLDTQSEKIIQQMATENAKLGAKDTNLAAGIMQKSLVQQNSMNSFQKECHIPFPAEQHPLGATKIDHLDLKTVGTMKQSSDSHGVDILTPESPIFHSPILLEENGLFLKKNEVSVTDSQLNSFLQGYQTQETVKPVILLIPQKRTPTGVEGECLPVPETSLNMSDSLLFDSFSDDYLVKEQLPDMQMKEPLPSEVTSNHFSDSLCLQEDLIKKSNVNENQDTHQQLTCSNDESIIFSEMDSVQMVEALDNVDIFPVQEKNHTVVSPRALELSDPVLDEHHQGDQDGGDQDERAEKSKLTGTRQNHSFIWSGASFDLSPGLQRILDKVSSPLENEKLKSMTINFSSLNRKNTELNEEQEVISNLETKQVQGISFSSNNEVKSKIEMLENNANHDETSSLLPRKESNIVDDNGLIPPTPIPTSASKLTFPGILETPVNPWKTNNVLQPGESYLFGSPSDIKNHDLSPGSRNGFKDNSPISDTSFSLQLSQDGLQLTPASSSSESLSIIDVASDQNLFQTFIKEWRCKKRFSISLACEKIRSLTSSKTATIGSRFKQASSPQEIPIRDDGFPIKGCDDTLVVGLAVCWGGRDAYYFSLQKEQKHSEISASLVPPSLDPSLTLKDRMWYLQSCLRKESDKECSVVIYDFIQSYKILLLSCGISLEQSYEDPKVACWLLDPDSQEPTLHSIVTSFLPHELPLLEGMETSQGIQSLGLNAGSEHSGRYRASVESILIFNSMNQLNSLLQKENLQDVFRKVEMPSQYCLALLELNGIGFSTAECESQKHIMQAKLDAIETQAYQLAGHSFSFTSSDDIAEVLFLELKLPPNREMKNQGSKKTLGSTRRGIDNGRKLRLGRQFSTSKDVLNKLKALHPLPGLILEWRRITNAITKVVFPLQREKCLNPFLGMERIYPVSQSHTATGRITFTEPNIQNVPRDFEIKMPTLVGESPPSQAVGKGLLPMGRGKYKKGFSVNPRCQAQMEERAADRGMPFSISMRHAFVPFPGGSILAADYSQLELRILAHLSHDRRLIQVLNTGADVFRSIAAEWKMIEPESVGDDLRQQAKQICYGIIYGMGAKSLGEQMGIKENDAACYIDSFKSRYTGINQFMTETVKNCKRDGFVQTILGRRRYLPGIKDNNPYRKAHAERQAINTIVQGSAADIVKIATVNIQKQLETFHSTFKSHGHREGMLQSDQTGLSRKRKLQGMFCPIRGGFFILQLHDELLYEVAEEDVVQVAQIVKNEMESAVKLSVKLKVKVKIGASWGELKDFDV
| SMILES | remaining activity |
| --- | --- |
| COc1cccc2c1C(=O)c1c(O)c3c(c(O)c1C2=O)C[C@@](O)(C(C)=O)C[C@@H]3O[C@H]1C[C@H](N)[C@H](O)[C@H](C)O1 | 100% and 101% |
| CSc1ccc(/C=C/c2nc3ccccc3n2S(=O)(=O)c2cccc(Cl)c2)cc1 | 66.3% and 64.8% |
| CC(=O)Oc1cccc2c1C(=O)c1c(OC(C)=O)cc(C(=O)O)cc1C2=O | 57.3% and 60.6% |
| N#Cc1c(O)c2c(-c3ccc(-c4ccccc4O)cc3)csc2[nH]c1=O | 48.1% and 48.3% |
| O=C(O)/C(=C/c1c(C(=O)O)[nH]c2cc(Cl)cc(Cl)c12)c1ccccc1 | 38.9% and 39.5% |
| O=C(O)[C@]1(Cc2cccc(Nc3nccs3)n2)CC[C@@H](Oc2cccc(Cl)c2F)CC1 | 50.7% and 51.6% |
| O=C(Nc1cc2cc[nH]c2cn1)c1ccccc1 | 50.1% and 52.5% |

Series 4 — observed: enzyme activity; action: inhibitor; tested at: 10 µM
Target: Calcium/calmodulin-dependent protein kinase type II subunit alpha (CAMK2A, Homo sapiens, UniProt Q9UQM7)
Sequence of UniProt Q9UQM7 (whole entry, looked up): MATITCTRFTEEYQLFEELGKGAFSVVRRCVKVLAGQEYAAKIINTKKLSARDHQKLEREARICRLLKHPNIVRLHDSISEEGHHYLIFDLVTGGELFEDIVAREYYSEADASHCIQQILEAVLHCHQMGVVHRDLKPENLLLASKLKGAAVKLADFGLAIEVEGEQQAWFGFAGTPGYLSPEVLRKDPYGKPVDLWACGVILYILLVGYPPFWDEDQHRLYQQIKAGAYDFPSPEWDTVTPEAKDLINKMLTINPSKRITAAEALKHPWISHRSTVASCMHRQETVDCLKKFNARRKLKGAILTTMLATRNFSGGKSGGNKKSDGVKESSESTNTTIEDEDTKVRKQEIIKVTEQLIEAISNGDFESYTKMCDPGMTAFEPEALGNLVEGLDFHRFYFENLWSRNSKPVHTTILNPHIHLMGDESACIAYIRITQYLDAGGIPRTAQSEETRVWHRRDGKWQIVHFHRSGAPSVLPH
| SMILES | inhibition [%] |
| --- | --- |
| CC(C)=CCC1=CC(=O)c2ccccc2C1=O | 4 |
| O=C(/C=C/c1ccc(O[C@@H]2O[C@H](CO)[C@@H](O)[C@H](O)[C@H]2O)cc1)c1ccc(O)cc1O | -34 |
| CC(C)=CCc1c(O)cc(O)c2c1O[C@H](c1ccccc1)CC2=O | 29 |
| CC(=O)OCC1=C(C(=O)O)N2C(=O)[C@@H](NC(=O)CSc3ccncc3)[C@H]2SC1 | -4 |
| O=C(O)C1CCCCN1O (stereo not drawn) | 8 |
| Nc1nc2c(ncn2[C@@H]2O[C@@H]3COP(=O)(O)O[C@H]3[C@H]2O)c(=O)[nH]1 | -1 |
| C[C@@H](CC[C@@]1(O)O[C@H]2C[C@H]3[C@@H]4CC[C@@H]5C[C@@H](O[C@@H]6O[C@H](CO)[C@H](O)[C@H](O)[C@H]6O[C@@H]6O[C@H](CO)[C@@H](O)[C@H](O)[C@H]6O)CC[C@]5(C)[C@H]4CC[C@]3(C)[C@H]2[C@@H]1C)CO[C@@H]1O[C@H](CO)[C@@H](O)[C@H](O)[C@H]1O | -5 |
| Cc1nc2ccc(CN(C)c3ccc(C(=O)N[C@@H](CCC(=O)O)C(=O)O)s3)cc2c(=O)[nH]1 | -13 |
| NS(=O)(=O)Cc1noc2ccccc12 | -5 |
